Experimental data collected from several papers.
Lines come from different studies, so protocols differ. Numbers after ± are the reported error.
Organism: Escherichia coli

SMILES	test	system	conditions	how to read	MIC
CC[C@H](C)[C@H](N)C1=N[C@H](C(=O)N[C@@H](CC(C)C)C(=O)N[C@H](CCC(=O)O)C(=O)N[C@H](C(=O)N[C@H]2CCCCNC(=O)[C@H](CC(N)=O)NC(=O)[C@@H](CC(=O)O)NC(=O)[C@H](Cc3c[nH]cn3)NC(=O)[C@@H](Cc3ccc4ccccc4c3)NC(=O)[C@H]([C@@H](C)CC)NC(=O)[C@@H](CCCN)NC2=O)[C@@H](C)CC)CS1	broth microdilution	ATCC 25922, LB medium	18 h, 37 °C, with: ZnSO4 0.3 mM	–	> 64 µg/mL
Cc1c2oc3c(C)ccc(C(=O)N[C@@H]4C(=O)N[C@H](C(C)C)C(=O)N5[C@H](C(=O)N(C)CC(=O)N(C)[C@@H](C(C)C)C(=O)O[C@@H]4C)[C@@H](O)C[C@@H]5C)c3nc-2c(C(=O)N[C@@H]2C(=O)N[C@H](C(C)C)C(=O)N3CC(=O)C[C@H]3C(=O)N(C)CC(=O)N(C)[C@@H](C)C(=O)O[C@@H]2CO)c(N)c1=O	broth microdilution	ATCC 12435	16 to 48 h	–	> 9.33 µg/mL
CCCCCCCCCCCCCCCC(=O)N(C)[C@H](CO)C(=O)N[C@H](C)C(=O)NCC(=O)N(C)[C@@H]1C(=O)N[C@@H](C)C(=O)N[C@H](C(=O)O)Cc2ccc(O)c(c2)-c2cc1ccc2O[C@@H]1O[C@@H](C)[C@H](O)[C@@H](O)[C@H]1O	broth microdilution	MG1655	cation-adjusted Mueller Hinton II	–	inactive
CC[C@H](C)[C@H](NC(=O)[C@H](CCCCN)NC(=O)[C@H](CCCCN)NC(=O)[C@H](Cc1c[nH]c2ccccc12)NC(=O)[C@H](CC(N)=O)NC(=O)[C@@H](N)C(C)C)C(=O)N[C@@H](CC(C)C)C(=O)NCC(=O)N[C@@H](CCCCN)C(=O)N[C@H](C(=O)N[C@H](C(=O)N[C@@H](CCCCN)C(=O)N[C@H](C(=O)N[C@H](C(=O)N[C@@H](CCCCN)C(N)=O)C(C)C)C(C)C)[C@@H](C)CC)[C@@H](C)CC	–	ATCC 8937, RPMI medium	24 h, 37 °C	–	1.9 to 3.7 µM
Cc1cc(N)c2cc(NC(=O)c3ccc4c(-c5cccc(O)c5)cccc4c3)ccc2n1	–	ΔtolC efflux-deficient	–	–	> 200 µM
COc1cc2c(=O)c(C(=O)NCCNCCO)cn(Cc3ccccc3)c2cc1OCc1cccc(Cl)c1	–	ATCC 25922	–	≥80% growth inhibition	< 0.25 µg/mL
CO[C@@H](C(N)=O)[C@H](NC(=O)c1ccc(NC(=O)c2ccc([N+](=O)[O-])cc2)cc1)C(=O)Nc1ccc(C(=O)Nc2ccc(C(=O)Nc3ccc(C(=O)O)cc3)c(O)c2OC(C)C)cc1	–	K12 ΔtolC	–	–	0.125 µg/mL
CC[C@H](C)[C@H](NC(=O)CNC(=O)[C@@H](NC(=O)[C@@H](N)Cc1ccccc1)[C@@H](C)CC)C(=O)N[C@@H](CCSC)C(=O)N[C@@H](C)C(=O)N[C@H](C(=O)N[C@@H](CC(C)C)C(=O)N[C@@H](C)C(=O)N[C@@H](CO)C(=O)N[C@@H](CC(C)C)C(=O)N[C@H](C(=O)N[C@H](C(=O)N1CCC[C@H]1C(=O)N[C@@H](CCCCN)C(=O)N[C@@H](CC(C)C)C(=O)N[C@H](C(=O)N[C@@H](CCC(=O)O)C(=O)N[C@@H](CCCCN)C(=O)N[C@H](C(=O)N[C@@H](CCCCN)C(=O)N[C@@H](CCC(N)=O)C(=O)N[C@@H](C)C(=O)N[C@@H](CCCNC(=N)N)C(N)=O)[C@@H](C)CC)[C@@H](C)CC)[C@@H](C)CC)C(C)C)[C@@H](C)O	–	ATCC 35218, MHC medium with bicarbonate	–	–	> 50 µM
CC[C@H](C)[C@@H]1NC(=O)CNC(=O)[C@H](CCCCN)NC(=O)[C@H](C)NC(=O)[C@H](CCC(=O)O)NC(=O)[C@H](Cc2ccccc2)NC(=O)[C@H](CO)NC(=O)[C@H](CC(C)C)NC(=O)[C@H](C(C)C)NC(=O)[C@H](CC(=O)O)NC(=O)[C@@H](NC(=O)[C@@H](NC(=O)[C@@H](N)C(C)C)[C@@H](C)O)CSSC[C@@H]2NC(=O)[C@H](CO)NC(=O)CNC(=O)CNC(=O)[C@H](CCCCN)NC(=O)[C@H](CCCCN)NC(=O)[C@H](CCCNC(=N)N)NC(=O)[C@H](CC(C)C)NC(=O)[C@H](C)NC(=O)[C@H]([C@@H](C)CC)NC(=O)[C@@H]3CSSC[C@@H](C(=O)N[C@@H](CCCNC(=N)N)C(=O)N[C@@H](CC(N)=O)C(=O)O)NC(=O)[C@H](C(C)C)NC(=O)[C@H](CSSC[C@H](NC(=O)[C@H](C)NC(=O)[C@H](CO)NC(=O)[C@H](Cc4c[nH]cn4)NC(=O)[C@H](CC(N)=O)NC(=O)[C@H](C(C)C)NC(=O)[C@H](C)NC1=O)C(=O)N[C@@H](C)C(=O)N[C@@H](CC(C)C)C(=O)N[C@@H](Cc1c[nH]cn1)C(=O)N3)NC(=O)[C@H](C(C)C)NC(=O)CNC(=O)[C@H](CC(N)=O)NC(=O)[C@H](CCC(N)=O)NC2=O	broth microdilution	KCTC 1682	16 h, 37 °C	–	3.1 µM
CC[C@H](C)[C@H](NC(=O)[C@@H](Cc1ccccc1)NC)C(=O)N[C@@H](CO)C(=O)N[C@H](CCC(N)=O)C(=O)N[C@@H](C(=O)N[C@H](C(=O)N[C@@H](CO)C(=O)N[C@H]1C(=O)N[C@@H](C)C(=O)N[C@@H](C2CCCCC2)C(=O)N[C@@H]([C@@H](C)CC)C(=O)O[C@H]1C)[C@@H](C)CC)[C@@H](C)CC	broth microdilution	ATCC 10798, Mueller-Hinton broth	16 h, 37 °C	–	> 8 µg/mL
CC(C)C[C@H](NC(=O)[C@H](Cc1ccc(O)cc1)NC(=O)[C@@H]1CCCN1C(=O)[C@H](CCCNC(=N)N)NC(=O)[C@@H]1CCCN1C(=O)[C@H](CCCCN)NC(=O)[C@H](CC(=O)O)NC(=O)[C@@H]1CCCN1C(=O)[C@H](CCCNC(=N)N)NC(=O)C1(N)CCCCC1)C(=O)N1CCC[C@H]1C(=O)N[C@@H](CCCNC(=N)N)C(=O)N1CCC[C@H]1C(=O)N[C@@H](CCCNC(=N)N)C(=O)N1CCC[C@H]1C(=O)N1CCC[C@H]1C(=O)N[C@@H](CCCNC(=N)N)C(=O)N1CCC[C@H]1C(=O)N[C@H](C(=O)N[C@@H](CCCNC(=N)N)C(=O)N[C@@H](CSCc1ccc(CSC[C@H](NC(=O)[C@H](CCCNC(=N)N)NC(=O)[C@@H](NC(=O)[C@@H]2CCCN2C(=O)[C@H](CCCNC(=N)N)NC(=O)[C@@H]2CCCN2C(=O)[C@@H]2CCCN2C(=O)[C@H](CCCNC(=N)N)NC(=O)[C@@H]2CCCN2C(=O)[C@H](CCCNC(=N)N)NC(=O)[C@@H]2CCCN2C(=O)[C@H](CC(C)C)NC(=O)[C@H](Cc2ccc(O)cc2)NC(=O)[C@@H]2CCCN2C(=O)[C@H](CCCNC(=N)N)NC(=O)[C@@H]2CCCN2C(=O)[C@H](CCCCN)NC(=O)[C@H](CC(=O)O)NC(=O)[C@@H]2CCCN2C(=O)[C@H](CCCNC(=N)N)NC(=O)C2(N)CCCCC2)C(C)C)C(=O)NN)cc1)C(=O)NN)C(C)C	bacterial growth	ATCC 25922, 100% Mueller-Hinton broth	90 min, 37 °C, strain ATCC 25922	–	8.1 ± 0.4 µg/mL
CC[C@H](C)[C@H](NC(=O)[C@H](CO)NC(=O)[C@H](CO)NC(=O)[C@H](Cc1ccccc1)NC(=O)CN)C(=O)N[C@@H](Cc1ccccc1)C(=O)N[C@@H](CCCNC(=N)N)C(N)=O	–	ATCC 8739	20% FBS	–	> 128 µM
CCCCCCCCCCCCCCCCC(=O)N[C@@H](CCCCN)C(=O)N[C@@H](CCCCN)C(=O)N(CCCCN)CC(=O)N[C@@H](CCCCN)C(=O)N[C@@H](CCCCN)C(N)=O	broth microdilution	K12, water pH 7	18 h, 37 °C	–	8 µg/mL
CC[C@H](C)[C@H](NC(=O)[C@@H](NC(=O)[C@H](CCCCN)NC(=O)CNC(=O)[C@@H](NC(=O)[C@@H](NC(=O)[C@H](CO)NC(=O)[C@@H](NC(=O)[C@@H](NC(=O)[C@@H]1CCCN1C(=O)[C@@H](NC(=O)[C@@H](NC(=O)CN)[C@@H](C)CC)[C@@H](C)CC)[C@@H](C)CC)[C@@H](C)CC)[C@@H](C)CC)[C@@H](C)CC)[C@@H](C)CC)C(N)=O	broth microdilution	K12	–	–	> 34 µM
CC(C)C[C@H](NC(=O)[C@H](CC(C)C)NC(=O)[C@H](C)NC(=O)[C@H](NC(=O)[C@H](CO)NC(=O)[C@@H](CCCCN)NC(=O)[C@@H](CC(C)C)NC(=O)[C@@H](N)Cc1ccccc1)[C@@H](O)C(N)=O)C(=O)O	–	ATCC 10798	TFA salt	–	> 32 µg/mL
C/C(=N/NC(=N)N)c1nnn(-c2ccc(C#Cc3ccsc3)cc2)c1C	broth microdilution	JW55031 tolC mutant	–	–	32 µg/mL
CC[C@H](C)[C@H](NC(=O)[C@H](CCCNC(=N)N)NC(=O)[C@H](Cc1ccccc1)NC(=O)[C@H](CC(C)C)NC(=O)[C@H](CCCCN)NC(=O)[C@H](CO)NC(=O)[C@@H](NC(=O)[C@H](CC(C)C)NC(=O)[C@H](CCCCN)NC(=O)[C@H](C)NC(=O)[C@H](CC(N)=O)NC(=O)[C@H](CCCNC(=N)N)NC(=O)[C@H](Cc1ccc(O)cc1)NC(=O)[C@H](C)NC(=O)[C@@H](NC(=O)[C@H](CCCCN)NC(=O)[C@H](CC(N)=O)NC(=O)[C@H](CCCCN)NC(=O)[C@H](CC(C)C)NC(=O)[C@H](CO)NC(=O)[C@H](CC(C)C)NC(=O)[C@H](C)NC(=O)[C@H](C)NC(=O)[C@H](CO)NC(=O)[C@@H](NC(=O)[C@@H](NC(=O)[C@H](Cc1c[nH]c2ccccc12)NC(=O)[C@@H](NC(=O)[C@H](CO)NC(=O)[C@@H](NC(=O)[C@@H](N)CC(C)C)C(C)C)C(C)C)[C@@H](C)CC)[C@@H](C)CC)C(C)C)C(C)C)C(=O)N[C@@H](C)C(=O)N[C@@H](CC(C)C)C(=O)O	–	25922	with: ZnCl2 8 mM	–	1 µg/mL
CCCCCCCCCCCCCCCCCCCC(=O)N[C@@H](CCCCN)C(=O)N[C@@H](CCCCN)C(=O)N[C@@H](CCCCN)C(=O)N[C@@H](CCCCN)C(=O)N[C@@H](CCCCN)C(N)=O	broth microdilution	K12	16-24 h, 37 °C, prepared at pH 7	–	16 µg/mL
Cc1cccc(-c2nc(Nc3ccncn3)c3sccc3n2)n1	broth microdilution	3	–	–	> 64 µM
CCCCCCCCCCCC[S+]([O-])CC1OC(OC2C(N)CC(N)C(OC3OC(CN)C(O)CC3N)C2O)C(O)C(N)C1O (mixture of isomers)	–	BL21(DE3)	–	–	75 µg/mL
Cc1cc(N)c2cc(NC(=O)c3ccc4c(-c5cccc(N)c5)cccc4c3)ccc2n1	–	hyperporinated wild type	–	–	> 400 µM
CCCCCCCCCCCCCCCCCCSCC1OC(OC2C(N)CC(N)C(OC3OC(CN)C(O)CC3N)C2O)C(O)C(N)C1O (stereo not shown)	–	MC1061	–	–	> 150 µg/mL
CCCCCCCCCCCCCC(=O)N[C@@H](Cc1c[nH]c2ccccc12)C(=O)N[C@@H](CCCCN)C(=O)N[C@@H](CCCCN)C(=O)N[C@@H](CCCCN)C(=O)N[C@@H](CCCCN)C(N)=O	broth microdilution	K12, water pH 7	18 h, 37 °C	–	16 µg/mL
CCCCCCCCCCCCCCCCCCCCCCSCC1OC(OC2C(N)CC(N)C(OC3OC(CN)C(O)CC3N)C2O)C(O)C(N)C1O (stereo not shown)	–	BL21(DE3) AAC(6')/APH(2'')	–	–	> 150 µg/mL
CC[C@H](C)[C@H](NC(=O)[C@@H](CCCNC(=N)N)NC(=O)[C@H](CCCNC(=N)N)NC(=O)[C@@H]1CCCN1C(=O)[C@@H]1CCCN1C(=O)[C@H](CCCNC(=N)N)NC(=O)[C@@H]1CCCN1C(=O)[C@H](CCCNC(=N)N)NC(=O)[C@@H]1CCCN1C(=O)[C@H](CC(C)C)NC(=O)[C@H](Cc1ccc(O)cc1)NC(=O)[C@@H]1CCCN1C(=O)[C@@H]1CCCN1C(=O)[C@H](CCCCN)NC(=O)[C@H](Cc1c[nH]c2ccccc12)NC(=O)[C@@H](N)C(C)C)C(=O)N[C@@H](Cc1ccc(O)cc1)C(=O)N[C@@H](CC(N)=O)C(=O)N[C@H](CCCNC(=N)N)C(N)=O	broth microdilution	BW25113	18 h	–	8 µg/mL

A few entries again:
SMILES	test	system	conditions	how to read	MIC
COc1cc2c(=O)c(C(=O)NCCNCCO)cn(Cc3ccccc3)c2cc1OCc1cccc(Cl)c1	–	ATCC 25922	–	≥80% growth inhibition	< 0.25 µg/mL
CC[C@H](C)[C@H](NC(=O)[C@H](CCCNC(=N)N)NC(=O)[C@H](Cc1ccccc1)NC(=O)[C@H](CC(C)C)NC(=O)[C@H](CCCCN)NC(=O)[C@H](CO)NC(=O)[C@@H](NC(=O)[C@H](CC(C)C)NC(=O)[C@H](CCCCN)NC(=O)[C@H](C)NC(=O)[C@H](CC(N)=O)NC(=O)[C@H](CCCNC(=N)N)NC(=O)[C@H](Cc1ccc(O)cc1)NC(=O)[C@H](C)NC(=O)[C@@H](NC(=O)[C@H](CCCCN)NC(=O)[C@H](CC(N)=O)NC(=O)[C@H](CCCCN)NC(=O)[C@H](CC(C)C)NC(=O)[C@H](CO)NC(=O)[C@H](CC(C)C)NC(=O)[C@H](C)NC(=O)[C@H](C)NC(=O)[C@H](CO)NC(=O)[C@@H](NC(=O)[C@@H](NC(=O)[C@H](Cc1c[nH]c2ccccc12)NC(=O)[C@@H](NC(=O)[C@H](CO)NC(=O)[C@@H](NC(=O)[C@@H](N)CC(C)C)C(C)C)C(C)C)[C@@H](C)CC)[C@@H](C)CC)C(C)C)C(C)C)C(=O)N[C@@H](C)C(=O)N[C@@H](CC(C)C)C(=O)O	–	25922	with: ZnCl2 8 mM	–	1 µg/mL
CCCCCCCCCCCCCCCCCCSCC1OC(OC2C(N)CC(N)C(OC3OC(CN)C(O)CC3N)C2O)C(O)C(N)C1O (stereo not shown)	–	MC1061	–	–	> 150 µg/mL
